Assay results gathered from unrelated publications.
Every numbered part comes from another study and shows a few of its results, in no order. Changes are numbered by the printed parent chain.

Study 1 — target: inorganic phosphate, free oxyanion; technique: microfluidic competitive inhibition; matrix: in vitro, cell-free expressed; concentration: not given; direction: lower = stronger binding; quantity: phosphate dissociation constant
Notes: derived from inhibition constants, unchanged parent 615000 nM
Parent: PafA, mature enzyme, eGFP fusion (Elizabethkingia meningoseptica, UniProt Q9KJX5); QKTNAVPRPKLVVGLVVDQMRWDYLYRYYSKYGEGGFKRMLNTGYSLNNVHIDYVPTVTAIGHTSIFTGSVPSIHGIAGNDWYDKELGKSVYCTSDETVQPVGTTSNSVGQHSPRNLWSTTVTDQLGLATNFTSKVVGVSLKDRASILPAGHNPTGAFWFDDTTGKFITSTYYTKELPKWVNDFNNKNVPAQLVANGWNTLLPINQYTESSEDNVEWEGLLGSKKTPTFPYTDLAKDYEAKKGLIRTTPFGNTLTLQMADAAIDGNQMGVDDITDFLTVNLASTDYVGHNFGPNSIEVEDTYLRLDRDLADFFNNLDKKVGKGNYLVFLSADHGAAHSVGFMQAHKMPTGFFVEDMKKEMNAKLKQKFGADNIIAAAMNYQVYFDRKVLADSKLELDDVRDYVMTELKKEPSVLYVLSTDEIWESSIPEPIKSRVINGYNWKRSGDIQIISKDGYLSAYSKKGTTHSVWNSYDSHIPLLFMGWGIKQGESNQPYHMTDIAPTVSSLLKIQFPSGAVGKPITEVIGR
R144V: > 133000 µM
K135G: 535 µM
L201G: 544 µM
Y383V: 664 µM
D124G: 533 µM
T465V: 401 µM
L202V: 650 µM
E522G: 665 µM

Study 2 — target: CCNE2, cyclin fold, Cln2 fusion (human); technique: yeast growth competition, sequencing; matrix: yeast; notes: strong parent motif; reference: not given; direction: higher = stronger binding; quantity: normalised enrichment score; parent: viral docking peptide; KKVKRRLFETREL
KKVKARAFETREL [R5A L7A]: 0.925
KKVKRRLFETREA [L13A]: 4.17
KKVKRRLFEAREL [T10A]: 3.92
KKVKKRLFETREL [R5K]: 1.42

Study 3 — effect on: binding; technique: phage display NGS; form: peptide; reference: input library; quantity: minimum log2 enrichment ratio
Target: UDP-N-acetylglucosamine--peptide N-acetylglucosaminyltransferase 110 kDa subunit (OGT, Homo sapiens, UniProt O15294)
UniProt O15294, sequence (whole entry, looked up): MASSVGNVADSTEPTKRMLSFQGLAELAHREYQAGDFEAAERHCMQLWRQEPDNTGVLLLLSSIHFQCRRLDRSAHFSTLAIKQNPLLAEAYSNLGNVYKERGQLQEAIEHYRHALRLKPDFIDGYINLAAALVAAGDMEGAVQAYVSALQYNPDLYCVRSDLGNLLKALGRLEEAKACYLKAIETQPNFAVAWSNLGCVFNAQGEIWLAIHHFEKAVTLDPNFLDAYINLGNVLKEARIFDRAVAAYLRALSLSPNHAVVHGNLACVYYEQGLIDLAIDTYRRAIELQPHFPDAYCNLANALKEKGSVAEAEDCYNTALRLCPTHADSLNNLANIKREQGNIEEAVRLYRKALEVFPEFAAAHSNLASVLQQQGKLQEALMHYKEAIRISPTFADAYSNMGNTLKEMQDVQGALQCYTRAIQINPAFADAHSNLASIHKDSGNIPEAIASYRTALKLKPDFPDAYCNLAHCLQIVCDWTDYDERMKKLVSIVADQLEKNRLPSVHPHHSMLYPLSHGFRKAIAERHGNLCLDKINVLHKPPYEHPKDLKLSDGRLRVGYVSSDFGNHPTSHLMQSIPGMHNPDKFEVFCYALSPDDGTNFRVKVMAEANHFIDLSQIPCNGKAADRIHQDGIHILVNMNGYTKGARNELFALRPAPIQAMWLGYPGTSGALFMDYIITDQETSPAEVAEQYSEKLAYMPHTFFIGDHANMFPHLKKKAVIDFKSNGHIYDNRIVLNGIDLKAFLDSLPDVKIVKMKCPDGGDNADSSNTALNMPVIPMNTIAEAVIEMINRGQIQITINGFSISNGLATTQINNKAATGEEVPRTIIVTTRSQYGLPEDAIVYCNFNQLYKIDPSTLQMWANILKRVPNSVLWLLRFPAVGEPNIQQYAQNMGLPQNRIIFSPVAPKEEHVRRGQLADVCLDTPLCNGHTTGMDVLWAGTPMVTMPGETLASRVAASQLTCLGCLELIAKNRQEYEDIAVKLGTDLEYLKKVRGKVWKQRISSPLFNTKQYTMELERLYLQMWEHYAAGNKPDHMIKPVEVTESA
YDNMQYRPQYQIATH: 3.07
HRHDYDYQHHLPRYF: 2.06
SDVTAMPKYQIQYQY: 4.32
HQSPHHRTVEHQVT: 2.32
YDKVMPEYQIKYTTS: 3.85
HTYHHLLHAEDGHSY: 3.89
QLHMLRQQHAHSGAT: 2.57
GGGHVMHHYYDKHNP: 1.31

Other studies, line by line
C[C@]12CC[C@@H](O)C[C@@H]1CC[C@@H]1[C@@H]2CC[C@]2(C)C(=O)CC[C@@H]12
nuclei count (mouse MPNST tumor cells; high-content nuclear imaging, refers to: cell number; 10 µM, 12 h, mean of 2 replicates; reference: plate mean, higher = more cells): 1.75 z-score

Some of these lines once more (study 1):
R144V: > 133000 µM
T465V: 401 µM
E522G: 665 µM
